Measured values from different studies.
Every numbered part comes from another study and shows a few of its results, in no order.

Series 1 — method: protein binding microarray; molecule type: double-stranded DNA, one strand shown; sample: in vitro; tested at: not given; relative to: not given; direction: higher = stronger binding
Target: Histone acetyltransferase KAT6A, both winged helices, GST fusion (KAT6A, Homo sapiens, UniProt Q92794, residues 1-181)
Notes: 8-mer, flanks averaged, mean of 2 arrays, mostly near background
Residues (chain): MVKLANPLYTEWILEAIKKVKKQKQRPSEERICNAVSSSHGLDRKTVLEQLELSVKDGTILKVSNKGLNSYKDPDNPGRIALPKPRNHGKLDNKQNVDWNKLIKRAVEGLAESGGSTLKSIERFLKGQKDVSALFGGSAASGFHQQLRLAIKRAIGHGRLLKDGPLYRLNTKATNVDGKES
Sequence	E-score
CCGCCTAC	0.149
CCAAGATA	-0.15
GCGTGCCC	0.0734
CAGGATGG	-0.0402
GTGACGAA	0.0345
GTTGAGGA	-0.0449
GTGTAAAC	-0.0172
CTGACGAA	-0.027
ACGTGCCA	-0.143
ATACCCAG	-0.149
ATCTTACG	0.0838
TAGAATAA	-0.109
AAGGTGGA	-0.168
GCGATCCC	0.0796
CCAATTGC	0.0382
AACGGCAT	0.293
TGGGGGAA	-0.176
ATCCCGAT	-0.106
AGTGTGGC	-0.108
ATCTTGAG	-0.18
TCAAATAA	0.0503
AGAGTAAA	-0.0177
GCGACTCC	0.0686
TTCGGAAA	0.104
CTGCTTCA	-0.16

Series 2 — method: universal PBM; molecule type: double-stranded DNA, one strand shown; sample: in vitro; tested at: 600 nM; direction: higher = stronger binding
Target: Sal-like protein 4, full length isoform A (SALL4, Homo sapiens, UniProt Q9UJQ4, residues 1-1053)
Sequence of UniProt Q9UJQ4 (whole entry, looked up): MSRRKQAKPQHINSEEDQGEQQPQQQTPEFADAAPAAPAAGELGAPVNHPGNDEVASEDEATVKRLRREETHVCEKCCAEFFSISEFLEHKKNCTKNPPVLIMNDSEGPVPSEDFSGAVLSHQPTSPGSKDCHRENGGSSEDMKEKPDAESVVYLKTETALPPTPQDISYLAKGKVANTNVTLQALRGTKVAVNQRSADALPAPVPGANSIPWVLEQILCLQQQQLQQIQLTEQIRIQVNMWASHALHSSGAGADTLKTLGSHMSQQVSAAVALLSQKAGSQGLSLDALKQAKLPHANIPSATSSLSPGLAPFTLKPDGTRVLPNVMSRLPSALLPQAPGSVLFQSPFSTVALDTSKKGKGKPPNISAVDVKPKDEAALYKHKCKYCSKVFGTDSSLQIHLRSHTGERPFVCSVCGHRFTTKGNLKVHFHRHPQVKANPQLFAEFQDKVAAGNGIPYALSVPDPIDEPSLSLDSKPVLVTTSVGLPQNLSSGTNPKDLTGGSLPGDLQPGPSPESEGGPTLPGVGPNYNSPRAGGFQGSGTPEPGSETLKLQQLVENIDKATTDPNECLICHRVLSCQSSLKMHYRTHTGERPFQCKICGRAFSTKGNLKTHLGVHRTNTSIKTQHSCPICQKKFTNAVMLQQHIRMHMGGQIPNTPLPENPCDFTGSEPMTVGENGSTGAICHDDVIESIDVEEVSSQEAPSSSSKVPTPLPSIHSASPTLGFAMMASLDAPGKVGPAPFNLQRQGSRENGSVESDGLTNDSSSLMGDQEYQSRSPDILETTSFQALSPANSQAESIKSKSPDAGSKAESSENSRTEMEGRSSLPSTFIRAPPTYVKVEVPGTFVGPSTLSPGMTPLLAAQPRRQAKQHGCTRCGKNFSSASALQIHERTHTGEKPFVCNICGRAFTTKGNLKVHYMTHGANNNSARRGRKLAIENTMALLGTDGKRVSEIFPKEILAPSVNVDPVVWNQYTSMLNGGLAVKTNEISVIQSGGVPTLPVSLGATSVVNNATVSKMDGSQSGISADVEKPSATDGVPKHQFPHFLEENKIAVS
Notes: 8-mer, flanks averaged, mean of replicates
Sequence	E-score
TATGACAA	0.318
CAGCAATC	0.0413
ACCGTGTG	-0.2
ATATCAGC	0.156
TAGAGAAA	0.0162
AACTGAGT	0.0791
CACGTCCG	-0.242
AACTGGGG	-0.283
AACTCAGC	0.0162
AATAGATT	0.3
AAAGCTGA	0.0941
CCATCTGC	-0.0918
AACGAGGT	-0.205
GCTTAAGC	-0.0883
CGAGCCGA	-0.315
ACGGCTAG	-0.148
CACTCTCG	-0.0972
CACCTTGA	-0.179
TAGATCGA	0.0551
CGAACCCA	-0.233
CTGGCATA	-0.0109
CTTTTCAA	0.254

Series 3 — method: RNA Bind-n-Seq; molecule type: RNA; sample: in vitro; tested at: not given; relative to: input RNA pool; direction: higher = stronger binding
Target: RING finger protein unkempt homolog, zinc fingers 1-6, GST-SBP tag (UNK, Homo sapiens, UniProt Q9C0B0, residues 30-357)
Notes: RNA with constant flanks, human-mouse chimeric sites, ends assumed
All sequences stand within: GGGAGUUCUACAGUCCGACGAUC … CAACAGAGGAUUGAGCAUCA
Construct (chain): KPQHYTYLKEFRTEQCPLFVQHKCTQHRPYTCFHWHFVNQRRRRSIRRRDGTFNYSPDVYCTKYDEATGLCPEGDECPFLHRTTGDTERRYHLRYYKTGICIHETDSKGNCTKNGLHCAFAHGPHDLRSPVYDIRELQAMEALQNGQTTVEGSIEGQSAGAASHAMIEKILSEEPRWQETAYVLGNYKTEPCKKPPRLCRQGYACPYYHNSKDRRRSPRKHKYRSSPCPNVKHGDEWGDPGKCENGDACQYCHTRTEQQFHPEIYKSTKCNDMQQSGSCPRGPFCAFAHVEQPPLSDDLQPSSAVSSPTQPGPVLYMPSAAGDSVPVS
Sequence	bound/input enrichment [ratio]
AGGAGGAGAUUAAAGGGUGAGAGUGGGGUGGAAGACUGUGUCAUGGCUCUGGAGACACUGUUCAGUGUCCUGCUUUCUCUGUGCAGACUGAUGGCCCCUUACACGCCUUUUCUCACUGAG	0.0842
CUCAGAGACGUGGCAUAUCAGUAUGUGAAAAAGGGGUCUCGUAUAUUUGUGGAAGGGAAAGUGGACUAUGGCGAGUACAUGGAUAAAAACAAUGUGAGGCGGCAAGCAACAACAAUCAUA	0.304
GUGUCCUGCUUUCAACUUAAAUCACUGAGGCAUCUCUACUAUUCUGUUAAAAUCAGGACUGUAGCGCUGUGUCACCACAUGAGAGUUCAGAAGCAGCCUUUCUGUGGAGGGUGGGAAUGA	0.132
GCUGGAUCUUCUAAGUACCAGUGGGACAUUAUGAAAUCCCUUGGGCUCUCUGAUGACGACAUAGUGAAAUUUUCUGAAGCAGAGCACUGGCUUGAUUAUUUCCCACCACUGGCCGUUCAG	0.245
GUAAUGGACGUCAACACUGCUCUACAAGAGGUGCUGAAGACCGCCCUCAUCCACGAUGGCCUAGCACGUGGAAUUCGCGAAGCUGCCAAAGCCUUAGACAAGCGCCAAGCCCAUCUUUGU	0.237
AGAGAUAAGACAUCCAGAAAUAUGAGAGGCUCCCGGAUGAAUGGGUUUCCAAGUCCCACUCACAGCGCCCACUGUAGCUUCUACCGAACCAGAACCUUGCAGGCACUGAGUAAUGAGAAG	0.172
GCGAACAGGACUACAGAAAUGCUGGUAAUUUCAGUCACUUGCUGAUGACUUCUGAUGUCCCAGCAAAUAAUGCCACAGUUGACUGCUGAGAAGAUACUUCUGAGGACCCACGUCUAAGGU	0.129
GGCUGCUGGUGACUGUCCUGGAGUGGCUGGAGUUCCCGCCGGAGCGCGCGCAGGUUAAUUUUAGAAAAUGCCAAGUAGGAAAUUUGCUGAGGGUGAAGUGGUCAGAGGCCGAUGGCCUGG	4.2

Series 4 — method: RNA Bind-n-Seq; molecule type: RNA; sample: in vitro; tested at: 200 nM; notes: whole 134-nt RNA, ends assumed; with: 150 mM KCl; relative to: input library; direction: higher = stronger binding
Target: Ras GTPase-activating protein-binding protein 1, full length (G3BP1, Homo sapiens, UniProt Q13283)
Sequence of UniProt Q13283 (whole entry, looked up): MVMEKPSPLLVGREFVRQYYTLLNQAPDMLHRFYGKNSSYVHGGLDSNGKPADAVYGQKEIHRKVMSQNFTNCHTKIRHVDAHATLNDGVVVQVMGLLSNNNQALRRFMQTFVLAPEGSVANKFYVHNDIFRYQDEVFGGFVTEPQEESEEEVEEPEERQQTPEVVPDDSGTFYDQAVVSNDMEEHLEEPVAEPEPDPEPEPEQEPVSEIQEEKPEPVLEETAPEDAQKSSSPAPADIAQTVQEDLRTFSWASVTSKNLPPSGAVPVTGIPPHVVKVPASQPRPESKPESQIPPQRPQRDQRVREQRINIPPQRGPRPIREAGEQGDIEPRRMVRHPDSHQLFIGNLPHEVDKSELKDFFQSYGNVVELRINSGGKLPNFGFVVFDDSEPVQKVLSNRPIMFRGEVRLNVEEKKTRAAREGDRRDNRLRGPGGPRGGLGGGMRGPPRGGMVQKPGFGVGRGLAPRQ
All sequences stand within: GGGAGUUCUACAGUCCGACGAUC … UGGAAUUCUCGGGUGUCAAGG
Sequence	log2 enrichment
UCCUGUGCUACACAUCGUAUGUACCGAAUCGGCCCCCCGGGGCCCCCCGGGGCCCCCCGGAAAGUAUUAUGUUACGCCGUUCGGAUCUGC	-0.635
ACCAUGCAGGUGGGCAUCUUUGGGAAGUGGGGCAAGGGGGGGAUAGGGAGGGGGGUAACACUUUGGGAACAGGUGGUCCCAAGUCGUUUC	1.02
AUGGAUGACCCCUCUGUGGGCCCCAAGAUCCCCCAGGCUUUGGAGAAGAUCCUGCAGCUGAAGGAGAGCCGCCAGGAAGAGAUGAAUUCU	-1.41
AAGUCCUGUGCUACACAUCGUAUGUACCGAAUCGGUUUUUGGUUUGGUUUUUUUGGAAAGUAUUAUGUUACGCCGUUCGGAUCUGCACUU	-1.1
ACCAUGCAGGUGGGCAUCUUUGGGAAGUGGGGCAAGGGGGGGAUAGGGAGGGGGGUAACACUUUGAAAACAGGUGGUCCCAGGUCGUUUC	1.32
AAGUCCUGUGCUACACAUCGUAUGUACCGAAUCGGUUUUGGUUUUGGGUUUUGGGGAAAGUAUUAUGUUACGCCGUUCGGAUCUGCACUU	-1.01
CAAGUCCUGUGCUACACAUCGUAUGUACCGAAUCGGCCCGGGGCCCGGGGCCCGGGAAAGUAUUAUGUUACGCCGUUCGGAUCUGCACUU	-0.797
UCCUGUGCUACACAUCGUAUGUACCGAAUCGGGGAAAAAGGGGAAAAAGGAAAAAGGGGAAAGUAUUAUGUUACGCCGUUCGGAUCUGCA	-0.233
AGUCCUGUGCUACACAUCGUAUGUACCGAAUCGGGGUUUUUGGGUUUUUGGUUUUUGGAAAGUAUUAUGUUACGCCGUUCGGAUCUGCAC	-0.821

Excerpt of the above (series 2):
Sequence	E-score
ACCGTGTG	-0.2
ATATCAGC	0.156
TAGAGAAA	0.0162
AACTGAGT	0.0791
CACGTCCG	-0.242
AACTGGGG	-0.283
AACTCAGC	0.0162
AATAGATT	0.3
AAAGCTGA	0.0941
CCATCTGC	-0.0918
AACGAGGT	-0.205
